Assay results collected from several papers.
Protocols differ between the studies behind these lines. ± marks the error that the study gave.

SMILES | assay | system | conditions | scale | quantity | value
CCCCCCCCCCCCCCCC(=O)N[C@@H](CCCCN)C(=O)N[C@@H](CCCCN)C(=O)N[C@@H](CO)C(=O)N[C@@H](CCCNC(=N)N)C(=O)N[C@@H](C)C(=O)N[C@@H](CC(C)C)C(=O)N[C@@H](Cc1ccccc1)C(N)=O | – | human, whole blood of PCI patients | up to 150 µM | – | activated clotting time | no effect
CC(=O)N[C@H](C)c1cc(Cl)ccc1Cn1c(=S)[nH]c(=O)c2[nH]ccc21 | – | Sprague-Dawley rat, female, plasma | oral, 125 mg/kg/day | reference: rat over human 10 mg | exposure ratio | 1
CCOc1ccc2c(c1)C(C)=CC(C)(C)N2c1cc(OCC)cc2c1NC(C)(C)C=C2C | LC-MS/MS | laying hens, kidney | oral in feed, 50 mg/kg feed ethoxyquin, 56 days | – | tissue residue | 2.7 ± 1.3 ng/g
CC(C)(O)c1ncc([S@](N)(=O)=NC(=O)Nc2c3c(cc4c2CCC4)CCC3)s1 | – | human, plasma | oral, 600 mg, single dose, fasted, healthy volunteers | – | Cmax | 59.1 µg/mL
c1ccc(CN2CCOCCOCCN(CCCCCCCCCCCCCCN3CCOCCOCCN(CCCCCCCCCCCCCCN4CCOCCOCCN(Cc5ccccc5)CCOCCOCC4)CCOCCOCC3)CCOCCOCC2)cc1 | dynamic light scattering | water | – | – | aggregate size | 300 ± 50 nm
O=C([O-])CN1CCN(CC(=O)[O-])CCN(CC(=O)NC[C@H]2CC[C@H](C(=O)N[C@H](Cc3cnc4ccccc4c3)C(=O)NCCCC[C@H](NC(=O)N[C@@H](CCC(=O)O)C(=O)O)C(=O)O)CC2)CCN(CC(=O)[O-])CC1.[64Cu+2] | PET/CT dosimetry OLINDA/EXM | healthy volunteers, adrenals | up to 24 h post-injection | – | absorbed dose | 0.0391 mGy/MBq
Cn1c(=O)oc2ccc(-c3ccc(CC(C#N)NC(=O)C4CNCCCO4)c(F)c3)cc21 (stereo not drawn) | refers to: glucose urine present | human | 15 mg single dose, fasted | – | subjects with TEAE | 0%
Cc1ccc(OCC(=O)N(Cc2cccs2)c2ccn[nH]2)cc1 | – | female Sprague-Dawley rat, plasma | oral, 100 mg/kg, single dose | – | bioavailability | 0.53%
NS(=O)(=O)c1ccc(N2N=C(C(F)(F)F)CC2c2ccc(F)cc2F)cc1 (stereo not drawn) | – | human liver microsomes | 20 µM, 0 to 30 min, pH 7.4 | – | depletion rate | 233 pmol/min/mg
CC(C)[C@H](NC(=O)[C@@H]1CCCN1C(=O)[C@H](CCCNC(=N)N)NC(=O)[C@H](CS)NC(=O)[C@H](Cc1c[nH]c2ccccc12)NC(=O)[C@H](CCCNC(=N)N)NC(=O)[C@@H](Cc1ccccc1)NC(=O)[C@H](Cc1c[nH]cn1)NC(=O)[C@H](CCC(=O)O)NC(=O)[C@H](CS)NC(=O)[C@H](CS)NC(=O)CNC(=O)[C@@H]1CC(=O)N[C@@H](CCCNC(=N)N)C(=O)NCC(=O)N[C@@H](CC(=O)O)C(=O)N[C@H](Cc2ccc(O)cc2)C(=O)N1)C(N)=O [technetium-99m labelled] | – | C57 mice B16/F1 melanoma female | iv, 2 h, added: NDP-MSH blockade | reference: tumour over kidneys | tumour-to-tissue ratio | 0.17
CC(NC(=O)OC1OC(C(=O)O)C(O)C(O)C1O)c1cc(Cl)ccc1Cn1c(=S)[nH]c(=O)c2[nH]ccc21 (stereo not drawn) | – | Sprague-Dawley rat, male, plasma | oral, 125 mg/kg/day | reference: rat over human 5 mg | exposure ratio | 5.3
COc1cc2c(cc1OC)CN(CCCCn1ccc3cc(OCC[18F])ccc31)C2 | – | ICR mice, male | intravenous, 280 kBq, 120 min | reference: uptake at 2 min | brain washout | 42%
CC(=O)N([O-])CCCCCNC(=O)CCC(=O)N([O-])CCCCCNC(=O)CCC(=O)N([O-])CCCCCN.[89Zr+4] | radio-iTLC | aqueous buffer | 1 h, pH 5.0, 37 °C, EDTA challenge, added: 100-fold excess EDTA | – | intact complex | 63.5 ± 1.3%
[11CH3]N1CCN(CCCOc2ccc(=O)n(-c3ccc(Cl)c(Cl)c3)n2)CC1 | radiotracer | mouse BALB/c male, spleen | intravenous, 15 min | – | maximum uptake | 13.3 ± 2.03 %ID/cc
C[C@]12C[C@H](c3ccc(C(N)=O)cc3)C3=C4CCC(=O)C=C4CC[C@H]3[C@@H]1CC[C@@]2(O)C(F)(F)C(F)(F)F | – | human liver microsomes | 100 % absorption assumed | – | maximal oral bioavailability | 75%
CCCC[C@H](NC(=O)CNC(=O)CNC(=O)CN1CCN(CC(=O)O)CCN(CC(=O)O)CC1)C(=O)N[C@H]1CC(=O)NCCCC[C@@H](C(N)=O)NC(=O)[C@H](Cc2c[nH]c3ccccc23)NC(=O)[C@H](CCCNC(=N)N)NC(=O)[C@@H](Cc2ccccc2)NC(=O)[C@H](Cc2c[nH]cn2)NC1=O [copper-64 labelled] | – | female C57 mouse, B16/F1 melanoma | intravenous, 0.037 MBq, 4 h | reference: tumour over heart | uptake ratio | 31
Cc1nc(C#N)ccc1N | – | phosphate buffer with BSA | pH 8, 37 °C, 1% DMSO | – | relative fluorescence intensity | 3100 RFU/nmol
OC[C@@H]1[C@@H](O)[C@H](O)[C@@H](O)c2nccn21 | – | – | – | – | pKa of conjugate acid | 6.2
CCCCC/C=C/C=C/C(=O)NCC(C)C | – | rat plasma | 250 ng/mL, 48 h, 4 °C, short-term storage medium QC | reference: nominal concentration | relative error | -1.73%
CC1(C)C(=CC=C(C=CC2=[N+](CCC[N+](C)(C)C)c3ccc(S(=O)(=O)[O-])cc3C2(C)C)Oc2ccc(CCC(=O)[O-])cc2)N(CCC[N+](C)(C)C)c2ccc(S(=O)(=O)[O-])cc21 | – | 100% serum | pH 7.4 | – | extinction coefficient | 206000 M⁻¹ cm⁻¹

SMILES | assay | system | conditions | scale | quantity | value
O=c1c(O)cccn1CCCN1CCN(CCCn2cccc(O)c2=O)CC1 | – | hydroxypyridinone groups | – | reference: pKa3 over pKa2 | pKa difference | 2
O=C(NCCCN(CCCCN(CCCNC(=O)c1cccc(=O)n1[O-])C(=O)c1cccc(=O)n1[O-])C(=O)c1cccc(=O)n1[O-])c1cccc(=O)n1[O-].[89Zr+4] | radio-TLC | PBS | 1 d, pH 7.4, 37 °C, added: Ga^3+ 10-fold excess | – | intact complex | 97.9 ± 3%
CC(=O)N[C@H](CSSC[C@H](N)C(=O)O)C(=O)N[C@H](C)C(=O)N[C@H](CCCNC(=N)N)C(=O)N[C@H](CCCNC(=N)N)C(=O)N[C@H](CCCNC(=N)N)C(=O)N[C@H](C)C(=O)N[C@H](CCCNC(=N)N)C(N)=O | – | male human, plasma | intravenous, 2 mg, single dose, healthy volunteers | – | Vd | 136 L
COCC1CN(C2CCN(c3cc(OC)c(Nc4ncc(Br)c(Nc5ccc6c(c5P(C)(C)=O)OCCO6)n4)cc3C)CC2)C1 | – | human patients | oral, 10 to 240 mg once daily | – | treatment-related ALT increased, all grades | 22.2%
COc1ccc(OC)c(C(=Cc2ccc(O)c(OC)c2)C(=O)NCCc2ccc(O)cc2)c1 | – | KM mice, plasma | oral, 50 mg/kg | – | Tmax, first peak | 5 min
COCCN(CC(N)=O)C(=O)CN(CCOC)C(=O)CN(CCOC)C(=O)CN(CCC(=O)O)C(=O)CN(CCOC)C(=O)CN(CCOC)C(=O)CN(CCOC)C(=O)CN(CCCCN)C(=O)CN(CCOC)C(=O)CN(CCOC)C(=O)CN(CCOC)C(=O)CN(CCOC)C(=O)CN(CCOC)C(=O)CN(CCOC)C(=O)C(Cc1ccccc1)NC(C)=O (stereo not drawn) | potentiometric titration with KOH | 100 x 1 mM KCl | – | – | pKa of COOH group | 4.3
CN1CCC[C@]1(C)/C=C/S(=O)(=O)NC(=O)Nc1c2c(cc3c1CCC3)CCC2 | – | human, plasma | oral, 250 mg single dose | – | CL/F | 1.1 L/h
NCC(=O)N1CCC[C@H]1C(=O)N1C[C@H](O)C[C@H]1C(=O)O | potentiometric titration | – | 25 °C, MA2 complex, added: Fe(III) | – | log beta | 24.7
CCCC[C@@H]1NC(=O)[C@@H](NC(=O)[C@H](CCC(=O)O)NC(=O)CNC(=O)CN2CCN(CC(=O)O)CCN(CC(=O)O)CCN(CC(=O)O)CC2)CCCCNC(=O)C[C@@H](C(N)=O)NC(=O)[C@H](C(C)C)NC(=O)[C@@H]2CCCN2C(=O)[C@H](CCCNC(=N)N)NC(=O)CNC(=O)[C@H](Cc2c[nH]c3ccccc23)NC(=O)[C@H](CCCNC(=N)N)NC(=O)[C@@H](Cc2ccccc2)NC(=O)[C@H](Cc2c[nH]cn2)NC(=O)[C@H](CCC(=O)O)NC1=O [gallium-67 labelled] | – | normal C57 mice | intravenous, 0.037 MBq, 4 h | – | lung uptake | 0.17 ± 0.11 %ID/g
CC12CC(c3ccc(C(O)CO)cc3)C3=C4CCC(=O)C=C4CCC3C1CCC2(O)C(F)(F)C(F)(F)F (stereo not drawn) | – | rat liver microsomes | 100 % absorption assumed | – | maximal oral bioavailability | 82%
CN1CC[C@H](c2c(O)cc(O)c3c(=O)cc(/C=C/c4c(Cl)cccc4Cl)oc23)[C@H](O)C1 | dissolution, USP paddle apparatus | water, 0.25% SLS | 120 min, 37 °C, sink conditions | – | dissolved fraction | 78%
COC(=O)C(c1ccccc1Cl)N1CCC(SCC(=O)c2cccc(OC)c2)C(=CC(=O)O)C1 (mixture of isomers) | – | feline citrate plasma | 100 ng/mL, 1 weeks, room temperature | – | deviation from nominal concentration | -20%
C#CCOc1ccc(/C=C2\SC(=O)N(CC(=O)NCc3ccccc3)C2=O)cc1 | inverse Kirkwood-Buff integrals | binary solvent mixture | 298.15 K, mole fraction x1 0.95 | – | Kirkwood-Buff integral G2,3 | -338 cm³/mol
NC12CNCCNCC(NCc3ccc(CNC(=O)CCCC(=O)NCc4ccc(-c5nncnn5)cc4)cc3)(CNCCNC1)CNCCNC2.[64Cu+2] | OLINDA dosimetry | skin | 48 h pretargeting interval, added: huA33-TCO pretargeting | – | mean absorbed dose | 0.0277 rad/mCi
CNC(=O)N[C@]1(C)CCC[C@@]2(C)C3CC[C@@]4(C)C[C@]3(CCC21)CC4=O (single isomer, unassigned) | – | rat plasma | 1.5 ng/mL, 8 h, room temperature, short-term stability | reference: nominal concentration | relative error | -8%
CC[C@H](C)[C@H](NC(=O)[C@@H]1CCCN1C(=O)CNC(=O)[C@H](Cc1ccccc1)NC(=O)[C@H](CC(N)=O)NC(=O)[C@H](CC(N)=O)NC(=O)[C@H](CO)NC(=O)[C@H](CO)NC(=O)[C@H](Cc1c[nH]cn1)NC(=O)[C@@H](NC(=O)[C@H](CC(C)C)NC(=O)[C@H](Cc1ccccc1)NC(=O)[C@H](CC(N)=O)NC(=O)[C@H](C)NC(=O)[C@H](CC(C)C)NC(=O)[C@H](CCCNC(=N)N)NC(=O)[C@H](CCC(N)=O)NC(=O)[C@@H](NC(=O)[C@H](C)NC(=O)[C@@H]1CSSC[C@H](NC(=O)[C@@H](N)CCCCN)C(=O)N[C@@H](CC(N)=O)C(=O)N[C@@H]([C@@H](C)O)C(=O)N[C@@H](C)C(=O)N[C@@H]([C@@H](C)O)C(=O)N1)[C@@H](C)O)C(C)C)C(=O)N[C@@H](CC(C)C)C(=O)N[C@@H](CO)C(=O)N1CCC[C@H]1C(=O)N[C@H](C(=O)N[C@@H](CC(N)=O)C(=O)N[C@H](C(=O)NCC(=O)N[C@@H](CO)C(=O)N[C@@H](CC(N)=O)C(=O)N[C@H](C(=O)N[C@@H](Cc1ccc(O)cc1)C(N)=O)[C@@H](C)O)C(C)C)[C@@H](C)O | ion mobility mass spectrometry | nitrogen drift gas | monomer charge +4, compact conformer | – | collision cross section | 545 ± 14.4 Å²
CC(C)c1cnc(-c2cc(Cl)ccc2F)cc1Nc1ccncc1C(=O)NC(CO)CO | – | patients, phase I monotherapy | oral, dose not given, grade 2 | – | patients with ALT increase | 4.8%
COc1cc(NC(C)=O)c2c(c1O)-c1c(OC)c(OC)cc3c1C(C2)N(C)CC3 (stereo not drawn) | – | rat, plasma | 0.5 µg/mL, time not given, -20 °C to room temperature, three freeze-thaw cycles | – | remaining compound | 104 ± 3.5%
Cc1ccc(-c2ccc(-c3cc4sccc4o3)cn2)nc1 | TCSPC | toluene | – | – | radiative decay rate constant | 0.67 ns⁻¹
